# Results from different studies.
# Lines come from different studies, so protocols differ. Values joined by “and” are separate records of one study, mostly repeats; a detail may differ.
# Target: Serine/threonine-protein kinase N1 (PKN1, Homo sapiens, UniProt Q16512)
SMILES,assay,system,setting,how to read,quantity,value
Cc1ccc(-c2c(/C=C(\C#N)C(=O)NC(C)C)n(CCCO)c3ncnc(N)c23)cc1,"cell-free assay, competition with immobilised ligand",,1 µM,,remaining binding,100%
COc1cc(Nc2nc(C)cc(-c3cnn4nc(OC)ccc34)n2)cc(C(F)(F)F)c1,inhibitor,,1 µM,relative to: control,remaining activity,94%
CN1CC[C@@H](COc2cnc(C#N)cc2-c2ccn3nc(NC(=O)C4CC4)cc3c2)C1,"enzyme activity, inhibitor",,1 µM,,inhibition,3%
CCn1cc(C(=O)O)c(=O)c2c(N)c(F)c(NC3CCCCC3)cc21,kinase activity,,"0.1 µM, added: ATP at Km",,inhibition,-8.4%
N[C@H]1CC[C@H](Nc2nccc(-c3cccnc3Oc3ccc(NC(=O)NC4CC4)c4ccccc34)n2)CC1,kinobead competition pulldown,HEK293/HCT116 lysate mixture,"10 µM, 1 h, 4 °C",lower = stronger competition,log2 LFQ intensity,22.3 and 22.4 and 22.7
CN1CCN(Cc2ccc(-c3ccc(CO[C@H]4CCC[C@@H]4NC(=O)c4cc(-c5cnn(C)c5)cnc4N)cc3)cc2)CC1,"enzyme activity, inhibitor",,0.1 µM,,inhibition,9%
CCN1CCN(Cc2ccc(C(=O)Nc3ccc(C)c(NCc4cnc5[nH]ccc5c4OC)c3)cc2C(F)(F)F)CC1,"binding, competition with immobilised ligand",,1 µM,,remaining binding,100%
CNC1C[S+]2CC[S+]3CC[S+](C1)[Ru-4]321([N]=C=S)[n]2c3ccc(OC)cc3c3c4c(c5cc(F)c[n+]1c5c32)C(=O)NC4=O (centres unmarked),KinomeScan,,0.1 µM,relative to: untreated,remaining binding,88%
Cc1c[nH]c2nccc(-c3ccc(C(=O)N[C@@H]4c5c(F)cc(C(F)F)cc5C[C@@H]4O)cn3)c12,"binding, competition with immobilised ligand",,3 µM,,remaining binding,59%
Cc1cccc(O[C@H]2CCC[C@@H](C(C)CNCc3ccncc3)C2)c1 (relative stereo),"enzyme activity, inhibitor",,10 µM,,inhibition,-7%
NC(=O)[C@@H](O)C[C@H]1CCc2sc3ncnc(O[C@H]4CC[C@H](N5CCOCC5)CC4)c3c21,"enzyme activity, inhibitor",,10 µM,,inhibition,9%
Nc1ncc2c(n1)-c1c([nH]c3ccc(C4=CCOCC4)cc13)CCC2,"binding, competition with immobilised ligand",,1 µM,,remaining binding,100%
C=CC(=O)Nc1cccc(-c2cnc3[nH]cc(C(=O)NC(C)(C)C)c3n2)c1,"enzyme activity, inhibitor",,0.1 µM,,inhibition,-5%
COCC12C(=O)NC3C4(C(OC)CC1O)C1CC5(O)C(OC)C(O)C(OC(C)=O)(C1C5OC(=O)c1ccccc1)C3(O)C(OC)C24 (centres unmarked),"kinase activity, inhibitor, ProQinase kinase profiling",,25 µM,relative to: control,remaining activity,104% and 97%

# A few entries again:
SMILES,assay,system,setting,how to read,quantity,value
C=CC(=O)Nc1cccc(-c2cnc3[nH]cc(C(=O)NC(C)(C)C)c3n2)c1,"enzyme activity, inhibitor",,0.1 µM,,inhibition,-5%
COCC12C(=O)NC3C4(C(OC)CC1O)C1CC5(O)C(OC)C(O)C(OC(C)=O)(C1C5OC(=O)c1ccccc1)C3(O)C(OC)C24 (centres unmarked),"kinase activity, inhibitor, ProQinase kinase profiling",,25 µM,relative to: control,remaining activity,104% and 97%
